Measured values gathered from unrelated publications.
Read-out: metabolic stability

COc1ccc2c(c1OCc1ccccc1)C[C@@H](C(=O)O)N(c1nc3ccc(C#N)cc3o1)C2 — scaled CLint (rat, liver microsomes; 1 µM, pH 7.4): 8.13 mL/min/kg
CC1(CCCCCCCCCCOCCCOP(=O)(O)CO[C@H](CO)Cn2ccc(N)nc2=O)COC1 — hepatocyte CLint (rat, hepatocytes; 1 µM): 18.8 µL/min/10⁶ cells
C=C(C)C(=O)Nc1ccc(-c2c(-c3ccc(Oc4nccc(C)n4)cc3)c3c(N)ncnc3n2C)cc1 — hepatocyte CLint (rat, hepatocytes): 12 µL/min/10⁶ cells
CCn1cc(C(=O)NCCNCCO)c(=O)c2cc(OCc3ccc(C(C)(C)C)cc3)c(Cl)cc21 — microsomal CLint (male rat, liver microsomes; 1 µM): < 11.6 µL/min/mg
COc1cc(O)c(-c2cc(-c3cc(-c4c(O)cc(OC)c5c4C[C@@H](C)N[C@@H]5C)c4cc(C)cc(OC)c4c3O)c(O)c3c(OC)cc(C)cc23)c2c1[C@@H](C)N[C@H](C)C2 — microsomal CLint (male rat, liver microsomes; 1 µM): < 11.6 µL/min/mg
COC(=O)c1ccc2c(c1)NC(=O)/C2=C(\Nc1ccc2c(c1)CCN2C(=O)CN1CCOCC1)c1ccccc1 — microsomal CLint (Sprague-Dawley rat, liver microsomes; 10 µM, pH 7.4): 70 µL/min/mg
CCn1cc(C(=O)NCCNCCO)c(=O)c2cc(OCc3ccc(F)cc3)c(Cl)cc21 — microsomal CLint (male rat, liver microsomes; 1 µM): < 11.6 µL/min/mg
Cc1cc(N2CCC(CO)(C3CC3)C2=O)cc(C(=O)NCc2cc(F)cc(-c3cnn(C)c3)c2)n1 (stereo not drawn) — microsomal CLint (rat, liver microsomes; 0.5 µM): 11 µL/min/mg
CC1(CCCCCCCCCCCCCCOCCCOP(=O)(O)CO[C@H](CO)Cn2ccc(N)nc2=O)COC1 — hepatocyte CLint (rat, hepatocytes; 1 µM): 154 µL/min/10⁶ cells
NC[C@@H](C(=O)Nc1ccc(-c2cn[nH]c2)cc1)c1ccccc1 — microsomal CLint (rat, liver microsomes): 15 µL/min/mg
O=C(NCCNCCO)c1cn(Cc2ccccc2)c2c(Cl)c(OCc3ccc(C(F)(F)F)cc3)c(Cl)cc2c1=O — microsomal CLint (male rat, liver microsomes; 1 µM): < 11.6 µL/min/mg
Nc1ccn(C[C@@H](CO)OCP(=O)(O)OCCCS(=O)(=O)CCCCCCCCCCC2CCC2)c(=O)n1 — hepatocyte CLint (rat, hepatocytes; 1 µM): 22.2 µL/min/10⁶ cells
CN1C(=O)C2(Nc3ccccc3C(=O)N2Cc2ccccc2)c2cc(Br)ccc21 (stereo not drawn) — hepatocyte CLint (rat, hepatocytes): > 300 µL/min/10⁶ cells
COc1ccc(COc2c(OC)ccc3c2C[C@@H](C(=O)O)N(c2nc4ccc(F)cc4o2)C3)cc1 — scaled CLint (rat, liver microsomes; 1 µM, pH 7.4): 10.4 mL/min/kg
Cc1cc(N2CC[C@@](C#N)(C3CC3)C2=O)cc(NC(=O)Cc2ccccc2)n1 — microsomal CLint (rat, liver microsomes; 0.5 µM): 25 µL/min/mg

A few entries again:
COC(=O)c1ccc2c(c1)NC(=O)/C2=C(\Nc1ccc2c(c1)CCN2C(=O)CN1CCOCC1)c1ccccc1 — microsomal CLint (Sprague-Dawley rat, liver microsomes; 10 µM, pH 7.4): 70 µL/min/mg
